Measured values of several laboratories.
Each numbered part is a random draw from the data of one study; scales do not carry over between parts.

Series 1 — technique: protein binding microarray; molecule type: double-stranded DNA, one strand shown; sample: in vitro; tested at: not given; relative to: not given; reading: higher = stronger binding
Target: Histone acetyltransferase KAT6A, both winged helices, GST fusion (KAT6A, Homo sapiens, UniProt Q92794, residues 1-181)
Setting: 8-mer, flanks averaged, mean of 2 arrays, mostly near background
Construct (chain): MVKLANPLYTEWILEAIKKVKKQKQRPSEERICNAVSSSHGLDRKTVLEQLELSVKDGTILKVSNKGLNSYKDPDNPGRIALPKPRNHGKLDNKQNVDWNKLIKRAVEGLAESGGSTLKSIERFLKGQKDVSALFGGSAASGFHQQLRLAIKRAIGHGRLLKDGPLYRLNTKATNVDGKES
With `GTTCGAAC` the E-score was -0.0943.
For `AAATATAC`, the E-score was -0.206.
`ACGCATAT` has an E-score of 0.0165.

Series 2 — technique: universal PBM; molecule type: double-stranded DNA, one strand shown; sample: in vitro; tested at: 600 nM; reading: higher = stronger binding
Target: Sal-like protein 4, full length isoform A (SALL4, Homo sapiens, UniProt Q9UJQ4, residues 1-1053)
Chain of UniProt Q9UJQ4 (whole entry, looked up): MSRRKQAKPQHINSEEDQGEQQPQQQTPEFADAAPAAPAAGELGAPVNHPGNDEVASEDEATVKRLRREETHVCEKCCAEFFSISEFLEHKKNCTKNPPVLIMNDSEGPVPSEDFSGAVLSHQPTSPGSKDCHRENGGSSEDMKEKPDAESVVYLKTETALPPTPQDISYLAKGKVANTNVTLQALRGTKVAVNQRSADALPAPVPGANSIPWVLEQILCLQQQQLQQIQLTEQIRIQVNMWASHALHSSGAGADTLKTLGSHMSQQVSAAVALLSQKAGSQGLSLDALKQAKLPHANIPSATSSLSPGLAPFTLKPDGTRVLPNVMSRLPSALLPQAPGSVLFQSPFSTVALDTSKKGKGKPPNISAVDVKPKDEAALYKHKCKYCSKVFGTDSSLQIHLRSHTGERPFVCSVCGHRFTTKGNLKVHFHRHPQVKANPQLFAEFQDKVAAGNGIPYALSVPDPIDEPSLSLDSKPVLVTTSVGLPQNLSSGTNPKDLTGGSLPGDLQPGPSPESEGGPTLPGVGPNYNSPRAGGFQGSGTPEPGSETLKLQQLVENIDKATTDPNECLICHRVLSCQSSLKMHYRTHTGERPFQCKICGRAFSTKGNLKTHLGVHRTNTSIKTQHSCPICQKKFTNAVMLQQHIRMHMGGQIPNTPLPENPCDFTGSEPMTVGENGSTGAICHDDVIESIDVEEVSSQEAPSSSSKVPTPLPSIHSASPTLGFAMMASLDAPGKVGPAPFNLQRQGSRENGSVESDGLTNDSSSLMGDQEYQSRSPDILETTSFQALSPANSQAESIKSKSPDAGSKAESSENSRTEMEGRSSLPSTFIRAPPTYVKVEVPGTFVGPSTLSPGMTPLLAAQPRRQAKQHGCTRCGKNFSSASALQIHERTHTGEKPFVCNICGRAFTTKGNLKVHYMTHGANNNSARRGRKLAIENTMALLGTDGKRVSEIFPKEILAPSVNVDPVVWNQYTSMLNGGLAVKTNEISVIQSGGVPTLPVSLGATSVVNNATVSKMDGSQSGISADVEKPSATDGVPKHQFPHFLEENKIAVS
Setting: 8-mer, flanks averaged, mean of replicates
With `CCCTTTCA` the E-score was -0.0133.
The E-score of `CGCGCTGC` is reported as -0.217.
With `CAAGCTAG` the E-score was -0.16.
For `ACAGTTGC`, the E-score was 0.0104.

Series 3 — technique: aptamer microarray, sandwich; molecule type: DNA with 2'F-ANA; sample: in vitro; tested at: 200 nM; with: Cy3 exosite-II aptamer, 400 nM; reading: higher = stronger binding; sequence: GGTTGGTGTGGTTGG
Target: Prothrombin, mature alpha-thrombin (F2, Homo sapiens, UniProt P00734)
Setting: whole 15-mer aptamer, many near background
`2'F-ANA at 1 7 9 10 11 13 14 15` — result for “mean fluorescence intensity”: 50 a.u.
`2'F-ANA at 2 3 4 6 7 9 13 15` — result for “mean fluorescence intensity”: 270 a.u.
`2'F-ANA at 2 5 6 7 11 12 15`: “mean fluorescence intensity” 134 a.u.
`2'F-ANA at 3 5 9 13 14 15`: “mean fluorescence intensity” 74.1 a.u.
For `2'F-ANA at 1 7 13 14`, “mean fluorescence intensity” read 54.6 a.u.
For `2'F-ANA at 2 3 5 6 7 8 11 12 13 15`, “mean fluorescence intensity” read 143 a.u.

Other studies, line by line
`PhoQ, residues 284 288 289 292 302 303 ASSHFY` has a fold induction of 11.9 (PhoP, residues 12 14 15 18 19 SEGLL (Escherichia coli, UniProt P23836); Sort-seq, measured: YFP reporter; E. coli; PhoQ-PhoP variant library, with: 10 µM Mg2+; relative to: high Mg2+ state, higher = stronger signaling).

For quick reference, copied from above (series 1):
For `AAATATAC`, the E-score was -0.206.
